{"data": "Assay results gathered from unrelated publications", "note": "± gives the spread as reported."}
{"Compound": "N=C(N)NCCC[C@H](NC(=O)[C@H](CCCNC(=N)N)NC(=O)[C@H](CCCNC(=N)N)NC(=O)[C@H](CCCNC(=N)N)NC(=O)[C@H](CCCNC(=N)N)NC(=O)[C@H](CCCNC(=N)N)NC(=O)[C@@H]1CCCN1C(=O)[C@@H]1CCCN1C(=O)[C@@H]1C[C@@H](O)CN1C(=O)[C@@H]1C[C@@H](O)CN1C(=O)CNC(=O)CNC(=O)[C@@H]1CCCN1C(=O)[C@@H]1C[C@@H](O)CN1C(=O)[C@@H]1C[C@@H](O)CN1C(=O)CNC(=O)[C@@H]1CCCN1C(=O)[C@@H]1C[C@@H](O)CN1C(=O)[C@@H]1C[C@@H](O)CN1C(=O)[C@@H]1CCCN1C(=O)CNC(=O)CNC(=O)CNC(=O)[C@@H]1CCCN1C(=O)CNC(=O)[C@@H]1C[C@@H](O)CN1C(=O)[C@@H]1C[C@@H](O)CN1C(=O)[C@@H]1CCCN1C(=O)[C@@H]1CCCN1C(=O)CNC(=O)CNC(=O)CNC(=O)CCNC(=S)Nc1ccc2c(c1)C(=O)OC21c2ccc(O)cc2Oc2cc(O)ccc21)C(N)=O", "assay": "RP-HPLC", "test system": "25% human serum in RPMI", "conditions": "37 °C", "half-life": "13.9 h"}
{"Compound": "Cc1cccc(C)c1OCC(=O)N[C@@H](Cc1ccccc1)[C@H](C[C@H](Cc1ccccc1)NC(=O)[C@H](C(C)C)N1CCCNC1=O)OC(=O)[C@@H](N)CC(C)C", "test system": "DPBS", "conditions": "50 µM, pH 5.5, 37 °C", "half-life": "20 ± 0.3 h"}
{"Compound": "[NH2][Pt]1([NH2])([Cl])([O]C(=O)C(F)(F)F)[O]C(=O)C2(CC(=O)C2)C(=O)[O]1", "assay": "HPLC", "test system": "MeOH/PBS 1:9 v/v", "conditions": "pH 7.4, 37 °C, PBS 7.87 mM", "half-life": "0.833 to 1 h"}
{"Compound": "[N-]=[N+]=NC(CCCCNC(=O)C1=C[C@H](O)[C@@H](NC(=O)C2=C[C@H](O)[C@@H](NC(=O)C3=C[C@H](O)[C@@H](NC(=O)C4=C[C@H](O)[C@@H](NC(=O)C5=C[C@H](O)[C@@H](NC(=O)C6=C[C@H](O)[C@@H](N)[C@H]([C@H](O)[C@H](O)CO)O6)[C@H]([C@H](O)[C@H](O)CO)O5)[C@H]([C@H](O)[C@H](O)CO)O4)[C@H]([C@H](O)[C@H](O)CO)O3)[C@H]([C@H](O)[C@H](O)CO)O2)[C@H]([C@H](O)[C@H](O)CO)O1)C(N)=O (stereo partly drawn)", "test system": "human serum", "conditions": "100 µM, 37 °C", "half-life": "11.7 h"}
{"Compound": "COc1cc(C)c(Cc2ccc(O)cc2)cc1[C@@H]1S[C@H](CO)[C@@H](O)[C@H](O)[C@H]1O", "test system": "Japanese T2DM patients, plasma", "conditions": "5 mg luseogliflozin, day 1, once daily", "half-life": "19.5 ± 4.41 h"}
{"Compound": "O=C(NCCCCc1ccccc1)n1c(=O)oc2cc(-c3ccc(F)cc3)ccc21", "test system": "mouse plasma", "conditions": "37 °C", "half-life": "> 2 h"}
{"Compound": "C[C@H](N)C(=O)OCCOCn1cnc2c(=O)[nH]c(N)nc21", "test system": "DPBS", "conditions": "pH 7.4, 34 °C, chemical hydrolysis", "half-life": "2.88 ± 0.07 h"}
{"Compound": "O=[N][Fe]1([N]=O)[S](CCO)[Fe]([N]=O)([N]=O)[S]1CCO", "assay": "degradation", "test system": "simulated intestinal fluid", "conditions": "pH 6.8, 37 °C", "half-life": "8.1 ± 0.7 h"}
{"Compound": "Cc1nc(-c2ccc(NC(=O)c3cccs3)cc2Cl)no1", "assay": "plasma stability", "test system": "human plasma", "conditions": "5 µM, 37 °C", "half-life": "> 2 h"}
{"Compound": "CC(=O)N[C@H]1CSSC[C@@H](C(N)=O)NC(=O)[C@H](C(C)C)NC(=O)[C@@H]2CCCN2C(=O)[C@@H]2CCCN2C(=O)[C@H]([C@@H](C)O)NC(=O)[C@H](CC(=O)O)NC1=O", "test system": "plasma", "half-life": "5.7 h"}
{"Compound": "C=C(CC)C(=O)c1ccc(OCC(=O)NCCCC[18F])c(Cl)c1Cl", "conditions": "intact radiotracer in vivo", "half-life": "0.767 h"}
{"Compound": "CC[C@@H](NC(=O)[C@H](CC(C)C)NC(=O)NCc1ccccc1)C(=O)C(=O)NCc1cccc(Cl)c1OC", "assay": "epimerization to active isomer", "test system": "PBS", "conditions": "100 nM, room temperature", "half-life": "~0.25 h"}
{"Compound": "CN1CCN(c2cc(-c3ccccc3CO)c(N(C)C(=O)C(C)(C)c3cc(C(F)(F)F)cc(C(F)(F)F)c3)cn2)CC1", "test system": "healthy volunteers, plasma", "conditions": "oral, dose not given, netupitant-palonosetron fixed-dose combination", "half-life": "67.8 h"}
{"Compound": "CCC(=O)N[C@@H](C)C(=O)OCC(=O)N[C@@H](C)C(=O)O", "test system": "water", "conditions": "pH 2, 37 °C", "half-life": "758 h"}
{"Compound": "CC[C@H](C)[C@H](NC(=O)CNC(=O)CNC(=O)c1ccc2c(c1)C(=O)OC21c2ccc(O)cc2Oc2cc(O)ccc21)C(=O)N[C@@H](Cc1ccc(O)cc1)C(=O)N[C@@H](C)C(=O)N(C)CC(=O)N1CCC[C@H]1C(=O)N(C)[C@@H](Cc1ccccc1)C(=O)N[C@@H](CCCCN)C(=O)N[C@@H](CCCCN)C(=O)N[C@@H](CCCCN)C(=O)O", "assay": "CE-LIF", "test system": "Baf/BCR-ABL cell cytosolic lysate", "conditions": "1 µM, pH 7.4, 37 °C", "half-life": "1.83 h"}
{"Compound": "N=C(N)NCCC[C@H](NC(=O)[C@@H](Cc1ccccc1)NC(=O)[C@H](Cc1cnc[nH]1)NC(=O)COCC(=O)NCCCOCCOCCOCCCN)C(=O)N[C@@H](Cc1c[nH]c2ccccc12)C(N)=O", "assay": "LC-MS/MS", "test system": "mouse serum", "conditions": "10 µM, 37 °C", "half-life": "10.6 h"}
{"Compound": "Cn1cc(C(N)=O)c(NC2C3CC4CC2CC(O)(C4)C3)c2ccnc1-2 (stereo not drawn)", "test system": "Japanese adults, mild hepatic impairment, plasma", "conditions": "oral, 150 mg single dose", "half-life": "10.7 h"}
{"Compound": "COC(=O)C(NC(C)=O)C(C)(C)SSC(=O)Oc1ccc(C(F)(F)F)cc1 (stereo not drawn)", "assay": "precursor decay, RSSH release, HPLC", "test system": "PBS with 50% acetonitrile", "conditions": "100 µM, 37 °C, added: MMTS 1 mM", "half-life": "0.933 ± 0.05 h"}
{"Compound": "CCCCCCCCCCCCCC(=S)NCCCC[C@H](NS(C)(=O)=O)C(=O)N[C@@H](C)C(=O)N[C@@H](CCCNC(=N)N)C(N)=O", "test system": "human male serum", "conditions": "150 µM, 37 °C", "half-life": "> 2 h"}
{"Compound": "COc1cc(-c2nc3ccc(C(=O)NCCCN4CCN(c5cccc(C)c5C)CC4)cc3n2C2CCC2)cc(OC)c1OC", "test system": "mouse liver microsomes", "half-life": "< 0.5 h"}
{"Compound": "NC(COc1cc(C(F)(F)F)cc(C(F)(F)F)c1)c1ccccc1 (stereo not drawn)", "assay": "chemical stability, HPLC", "conditions": "pH 7.4, 37 °C", "half-life": "> 720 h"}
{"Compound": "Cc1ccc(C(C)C)cc1.[Au][S]C1=NCCS1.[Cl][Ru][Cl].c1ccc(P(CP(c2ccccc2)c2ccccc2)c2ccccc2)cc1", "assay": "NMR", "test system": "DMSO-d6", "half-life": "≥ 48 h"}
{"Compound": "CC(=O)NC1C(N=C(N)N)C=C(C(=O)OC(C)OC(=O)C(N)C(C)C)OC1C(O)C(O)CO (mixture of isomers)", "test system": "hydrochlorate buffer", "conditions": "pH 1.2, 37 °C, chemical hydrolysis", "half-life": "> 4 h"}
{"Compound": "CCC(CC)[C@H](NC(C)=O)[C@@H]1[C@H](O)[C@@H](C(=O)OCCOC(=O)[C@@H](N)C(C)C)C[C@H]1NC(=N)N", "test system": "phosphate buffer", "conditions": "pH 1.2, 37 °C", "half-life": "5.1 ± 0.383 h"}
{"Compound": "CC(=O)N[C@H]1CSSC[C@@H](C(N)=O)NC(=O)[C@H](C(C)C)NC(=O)[C@H](C)NC(=O)[C@H](Cc2c[nH]cn2)NC(=O)[C@H](CO)NC1=O", "test system": "rat plasma", "conditions": "37 °C, 0.6% DMSO", "half-life": "12.9 h"}
{"Compound": "CC(C)C[C@H](NC(=O)[C@H](CO)NC(=O)[C@H](CO)NC(=O)[C@H](CC(C)C)NC(=O)[C@@H](NC(=O)[C@@H]1CCCN1C(=O)[C@H](Cc1c[nH]c2ccccc12)NC(=O)[C@H](Cc1ccc(O)cc1)NC(=O)[C@@H]1CCCN1C(=O)[C@H](CC(C)C)NC(=O)[C@H](Cc1ccc(O)cc1)NC(=O)[C@@H](N)CCCCN)C(C)C)C(=O)O", "test system": "mouse serum", "conditions": "3000 µM, 37 °C, EphA4-ephrin-A5 ELISA activity", "half-life": "~0.6 h"}
{"Compound": "CC(C)(C)c1nc(-c2ccc(NC(=O)c3cccs3)cc2Cl)no1", "test system": "buffer", "conditions": "5 µM, pH 10.0, 37 °C", "half-life": "0.572 ± 0.122 h"}
{"Compound": "CC(=O)N[C@H](CC(=O)O)C(=O)N[C@H](Cc1c[nH]c2ccccc12)C(=O)N[C@H](Cc1ccccc1)C(=O)N[C@H](CCCCN)C(=O)N[C@H](C)C(=O)N[C@H](Cc1ccccc1)C(=O)N[C@H](Cc1ccc(O)cc1)C(=O)N[C@H](CC(=O)O)C(=O)N[C@H](CCCCN)C(=O)N[C@@H](C(=O)N[C@H](C)C(=O)N[C@H](CCC(=O)O)C(=O)N[C@H](CCCCN)C(=O)N[C@H](Cc1ccccc1)C(=O)N[C@H](CCCCN)C(=O)N[C@H](CCC(=O)O)C(=O)N[C@H](C)C(=O)N[C@H](Cc1ccccc1)C(N)=O)C(C)C", "test system": "statin-treated high-risk CHD patients, plasma", "conditions": "oral, 300 mg daily, day 13, mean, detected subjects", "half-life": "1.18 h"}
{"Compound": "CC[C@H](C)[C@H](NC(=O)CNC(=O)CNC(=O)c1ccc2c(c1)C(=O)OC21c2ccc(O)cc2Oc2cc(O)ccc21)C(=O)N[C@@H](Cc1ccc(O)cc1)C(=O)N[C@@H](C)C(=O)N(C)[C@@H](C)C(=O)N1CCC[C@H]1C(=O)N(C)[C@@H](Cc1ccccc1)C(=O)N[C@@H](CCCCN)C(=O)N[C@@H](CCCCN)C(=O)N[C@@H](CCCCN)C(=O)N[C@@H](C)C(N)=O", "assay": "CE-LIF", "test system": "Baf/BCR-ABL cytosolic lysate", "conditions": "1 µM, pH 7.4, 37 °C", "half-life": "0.43 h"}
{"Compound": "CC(C)(C)[C@H](NC(=O)C(F)F)C(=O)N1C[C@H]2[C@@H]([C@H]1C(=O)N[C@H](C#N)C[C@@H]1CCCNC1=O)C2(C)C", "test system": "human liver microsomes", "conditions": "microsomes 0.5 mg/mL", "half-life": "0.758 h"}
{"note": "Repeated from above:"}
{"Compound": "CC[C@@H](NC(=O)[C@H](CC(C)C)NC(=O)NCc1ccccc1)C(=O)C(=O)NCc1cccc(Cl)c1OC", "assay": "epimerization to active isomer", "test system": "PBS", "conditions": "100 nM, room temperature", "half-life": "~0.25 h"}
{"Compound": "CN1CCN(c2cc(-c3ccccc3CO)c(N(C)C(=O)C(C)(C)c3cc(C(F)(F)F)cc(C(F)(F)F)c3)cn2)CC1", "test system": "healthy volunteers, plasma", "conditions": "oral, dose not given, netupitant-palonosetron fixed-dose combination", "half-life": "67.8 h"}
